Published values collected from several papers.
Each line is one published result; not all experiments were run side by side.
Organism: Staphylococcus aureus

SMILES	test	test system	setting	scale	MIC
NC[C@@H]1O[C@H](O[C@H]2[C@@H](O)[C@H](O[C@@H]3[C@@H](O)[C@H](N)C[C@H](N)[C@H]3O[C@H]3O[C@H](CO)[C@@H](OCC(O)CO)[C@H](O)[C@H]3N)O[C@@H]2CO)[C@H](N)[C@@H](O)[C@@H]1O (stereo partly shown)	broth microdilution	MRSA isolate AG 039			16 to 32 µg/mL
COc1ccc(-c2csc(N/N=C(\C)c3ccc4c(c3)sc3nc(=O)c(C#N)cn34)n2)cc1	microbial growth, broth dilution				< 40 µg/mL
C=CCC1COC(=O)N1/N=C/c1ccc([N+](=O)[O-])o1 (stereo not shown)	microbial growth, broth dilution	ATCC29213	18 h		> 50 µg/mL
CCCCCCCCCCCCCCCCCCCCCCSCC1OC(OC2C(N)CC(N)C(OC3OC(CN)C(O)CC3N)C2O)C(O)C(N)C1O (stereo not shown)		methicillin-resistant			> 150 µg/mL
C[n+]1ccn(CC([O-])c2ccccc2)[c]1[Ag-][I].[Na+] (stereo not shown)	broth dilution	ATCC 23235	18 h, 37 °C		10 µg/mL
CN(C)c1cc(CNc2ccccc2)c(O)c2c1C[C@H]1C[C@H]3[C@H](N(C)C)C(O)=C(C(N)=O)C(=O)[C@@]3(O)C(O)=C1C2=O		MRSA 5, Tet M ribosome protection			4 µg/mL
CO[C@H]1CN(c2ccc(C(N)=O)nn2)CC[C@H]1NC(=O)c1[nH]c(C)c(Cl)c1Cl		ATCC 29213			0.25 µg/mL
Oc1c(Br)cc(Br)c2nc3cc(Cl)ccc3nc12	broth microdilution	MRSA 44			0.1 µM
C=C(NC(=O)C(=C)NC(=O)c1csc(C2=NC3c4csc(n4)C4NC(=O)c5csc(n5)C(C(C)(O)C(C)O)NC(=O)C5CSC(=N5)C(=CC)NC(=O)C(C(C)O)NC(=O)c5csc(n5)C3(CC2)NC(=O)C(C)NC(=O)C(=C)NC(=O)CNC(=O)C(C(C)CC)NC2C=Cc3c(C(C)O)cc(nc3C2O)C(=O)OC4C)n1)C(N)=O (stereo not shown)	broth microdilution	ATCC 10537 MRSA	18 h, 37 °C		0.023 µg/mL
CNC(CC(C)C)C(=O)NC1C(=O)NC(CC(N)=O)C(=O)NC2C(=O)NC3C(=O)NC(C(=O)NC(C(=O)NCCCNC(=N)N)c4cc(O)cc(O)c4-c4cc3ccc4O)C(O)c3ccc(c(Cl)c3)Oc3cc2cc(c3OC2OC(CO)C(O)C(O)C2OC2CC(C)(NCc3ccc(-c4ccc(Cl)cc4)cc3)C(O)C(C)O2)Oc2ccc(cc2Cl)C1O (stereo not shown)		Sensitive ATCC 25923			0.04 µg/mL
Cc1cc(O)cc2c1C(=O)c1c(cc3oc(=O)cc(-c4ccc(Cl)cc4)c3c1O)C2=O	microbial growth				16 µg/mL
CCCCc1ccc(N2C(=O)/C(=N\NC(=N)N)c3ccccc32)cc1	microbial growth, broth dilution		18 h		6 µg/mL
CCc1nc(N)nc(N)c1C#C[C@H](C)c1cc(-c2ccncc2)ccc1OC	broth microdilution	ATCC 43300	18 h, 37 °C		0.078 µg/mL
Cn1c(Cl)c(Cl)c(-n2c(C(=O)c3ccccc3O)cc(Cl)c2Cl)c1C(=O)c1ccccc1O	microbial growth, broth dilution	NCTC8325	20 h		> 64 µg/mL
Cc1cc(/C=C2\Sc3ccccc3N2CCCN2CCCC2)c2ccccc2[n+]1C	microbial growth, broth dilution	ATCCBAA1720 MRSA			32 µg/mL
CNC(CC(C)C)C(=O)NC1C(=O)NC(CC(N)=O)C(=O)NC2C(=O)NC3C(=O)NC(C(=O)NC(C(=O)O)c4cc(O)cc(O)c4-c4cc3ccc4O)C(O)c3ccc(c(Cl)c3)Oc3cc2cc(c3OC2OC(CO)C(O)C(O)C2OC2CC(C)(NC(=O)CCCCCCCCC[N+](C)(C)C)C(O)C(C)O2)Oc2ccc(cc2Cl)C1O (stereo not shown)	agar dilution	MRSA clinical isolate MRSA4			32 µg/mL
COc1ccccc1N1CCN(Cn2nc(C34CC5CC(CC(C5)C3)C4)n(-c3ccccc3)c2=S)CC1	two-fold dilution	IFO 3060	24 h, 36 °C		2 µg/mL
CC(C)C[C@H](NC(=O)[C@H](CC(C)C)NC(=O)[C@H](CCCCN)NC(=O)[C@@H]1CCCN1C(=O)[C@H](CC(C)C)NC(=O)[C@H](CC(C)C)NC(=O)[C@H](CCCCN)NC(=O)[C@H](CC(C)C)NC(=O)[C@H](CC(C)C)NC(=O)[C@H](CO)NC(=O)CNC(=O)[C@H](Cc1ccccc1)NC(=O)[C@@H](N)Cc1ccccc1)C(N)=O	broth microdilution	USA300 MRSA			0.78 to 1.56 µM
CCCCCCCCCc1nc2cc(Cl)ccc2c(=O)n1CCN	broth microdilution	RN6390B			12.5 µM
CC1OCC2OC(OC3C(N)CC(N)C(O)C3OC3OC(CO)C(OC4OC(CN)C(O)C(O)C4N)C3O)C(N)C(O)C2O1 (stereo not shown)	broth microdilution	MRSA isolate AG 038			32 to 64 µg/mL
O=C1OCC(NCc2ccccc2)N1/N=C/c1ccc([N+](=O)[O-])o1 (stereo not shown)	microbial growth, broth dilution	ATCC29213	18 h		3.12 µg/mL
CC(C)S[C@H]1[C@H](O)[C@@H](N)[C@@H](O[C@H]2[C@H](O[C@@H]3O[C@H](CO)[C@@H](O[C@H]4O[C@@H](CN)[C@@H](O)[C@H](O)[C@H]4N)[C@H]3O)[C@@H](O)[C@H](N)C[C@@H]2N)O[C@@H]1CO		methicillin-resistant			4 to 8 µg/mL

SMILES	test	test system	setting	scale	MIC
CCC1(C)CCN(Cc2cc(N(C)C)c3c(c2O)C(=O)C2=C(O)[C@]4(O)C(=O)C(C(N)=O)=C(O)[C@@H](N(C)C)[C@@H]4C[C@@H]2C3)CC1	microbial growth	MRSA			1 µg/mL
O=C1c2ccccc2C(=O)c2c1ccc1c2C(C(=O)Nc2ccccc2Cl)C(=O)C1c1ccccc1 (stereo not shown)	microbial growth				64 µg/mL
COCO[C@H]1[C@H](O)[C@@H](N)[C@@H](O[C@H]2[C@H](O[C@@H]3O[C@H](CO)[C@@H](O[C@H]4O[C@@H](CN)[C@@H](O)[C@H](O)[C@H]4N)[C@H]3O)[C@@H](O)[C@H](N)C[C@@H]2N)O[C@@H]1CO	broth microdilution	MRSA isolate AG 044			16 to 32 µg/mL
O=C(NCCNCCO)c1cn(Cc2ccccc2)c2c(Cl)c(OCc3ccc(C(F)(F)F)cc3)c(Cl)cc2c1=O		ATCC 43300 MRSA		≥80% growth inhibition	< 0.25 µg/mL
CN(C)c1cc(CNC(=O)C(C)(C)C)c(O)c2c1C[C@H]1C[C@H]3[C@H](N(C)C)C(O)=C(C(N)=O)C(=O)[C@@]3(O)C(O)=C1C2=O	microbial growth, broth dilution				2 µg/mL
C[n+]1ccc(/C=C2\Sc3ccccc3N2CCCN2CCCC2)c2ccccc21	microbial growth, broth dilution	ATCC43300 MRSA			8 µg/mL
CC(C)=CCc1cc([C@@H]2CC(=O)c3c(O)cc(O)c(CC=C(C)C)c3O2)cc(CC=C(C)C)c1O		ATCC 25923			128 µg/mL
Nn1c(CCCC2CCCCC2)nc2ccccc2c1=O	broth microdilution	RN6390B			> 100 µM
CC(C)C[C@H](NC(=O)[C@H](CC(N)=O)NC(=O)[C@H](CCCNC(=N)N)NC(=O)[C@@H](CC(C)C)NC(=O)[C@H](Cc1ccccc1)NC(=O)[C@H](CC(=O)O)NC(=O)[C@H](CCCCN)NC(=O)[C@@H](CC(C)C)NC(=O)[C@H](CCCNC(=N)N)NC(=O)[C@H](CCC(N)=O)NC(=O)[C@@H](NC(=O)[C@@H](CC(C)C)NC(=O)[C@H](CCCNC(=N)N)NC(=O)[C@H](CCCCN)NC(=O)[C@H](Cc1ccc(-c2ccccc2)cc1)NC(=O)CN)C(C)C)C(=O)N[C@H](C(N)=O)C(C)C	broth microdilution	USA300 LAC, MRSA			12.5 µM
CCCCCCCCCc1nc2cc(OC)c(OC)cc2c(=O)n1N	broth microdilution	RN6390B			> 100 µM
CCN(CC)CCCN1/C(=C/c2cc(C)[n+](C)c3ccccc23)Sc2ccccc21	microbial growth, broth dilution	ATCCBAA1720 MRSA			8 µg/mL
CN(C)c1cc(CNCC2CCCCC2)c(O)c2c1C[C@H]1C[C@H]3[C@H](N(C)C)C(O)=C(C(N)=O)C(=O)[C@@]3(O)C(O)=C1C2=O		MRSA 5, Tet M, 50% human serum			8 µg/mL
CNC(CC(C)C)C(=O)NC1C(=O)NC(CC(N)=O)C(=O)NC2C(=O)NC3C(=O)NC(C(=O)NC(C(=O)O)c4cc(O)cc(O)c4-c4cc3ccc4O)C(O)c3ccc(c(Cl)c3)Oc3cc2cc(c3OC2OC(CO)C(O)C(O)C2OC2CC(C)(NC(=O)CCCCCC[N+](C)(C)Cc3ccccc3)C(O)C(C)O2)Oc2ccc(cc2Cl)C1O (stereo not shown)	agar dilution	MRSA clinical isolate MRSA3			512 µg/mL
CC(=O)NCc1cc(N(C)C)c2c(c1O)C(=O)C1=C(O)[C@]3(O)C(=O)C(C(N)=O)=C(O)[C@@H](N(C)C)[C@@H]3C[C@@H]1C2	microbial growth, broth dilution				2 µg/mL
Oc1c(Cl)cc(Cl)c2cccnc12	microbial growth, agar dilution	ATCC29213			37.4 µM
CN(C)c1cc(CNC2CCCCC2)c(O)c2c1C[C@H]1C[C@H]3[C@H](N(C)C)C(O)=C(C(N)=O)C(=O)[C@@]3(O)C(O)=C1C2=O	microbial growth, broth dilution				2 µg/mL
CC1C=CC=CC(C)C2C=CC3CC(C)(O)C(O[N+](=O)[O-])C(C)C3C2C(=O)C(Cl)(Cl)C(=O)C(C)C(=O)O1 (stereo not shown)	microbial growth, broth dilution	NEWMAN			0.025 µg/mL
CN(C)c1cc(CN)c(O)c2c1C[C@H]1C[C@H]3[C@H](N(C)C)C(O)=C(C(N)=O)C(=O)[C@@]3(O)C(O)=C1C2=O		RN4250, Tet K efflux			16 µg/mL
CNC(CC(C)C)C(=O)NC1C(=O)NC(CC(N)=O)C(=O)NC2C(=O)NC3C(=O)NC(C(=O)NC(C(=O)O)c4cc(O)cc(O)c4-c4cc3ccc4O)C(O)c3ccc(c(Cl)c3)Oc3cc2cc(c3OC2OC(CO)C(O)C(O)C2OC2CC(C)(NC(=O)CCCCCCCCC[N+]3(C)CCOCC3)C(O)C(C)O2)Oc2ccc(cc2Cl)C1O (stereo not shown)	agar dilution	MRSA clinical isolate MRSA4			128 µg/mL
C=CCNCc1cc(N(C)C)c2c(c1O)C(=O)C1=C(O)[C@]3(O)C(=O)C(C(N)=O)=C(O)[C@@H](N(C)C)[C@@H]3C[C@@H]1C2	microbial growth, broth dilution				1 µg/mL
COc1ccc(NC(=O)CSc2nc3ccccc3c(=O)n2-c2ccc(S(N)(=O)=O)cc2)cc1		methicillin-resistant	24 h, 37 °C		7.81 µg/mL
